# Measurements pooled from the literature.
# Parts stem from different laboratories: compare values within a part only.

# Study 1
# Target: RNA binding protein fox-1 homolog 2, RRM domain, GST-SBP tag (RBFOX2, Homo sapiens, UniProt O43251-10, residues 100-194)
# Method: RNA Bind-n-Seq
# Form: RNA
# Sample: in vitro
# Tested at: 365 nM
# Notes: natural RNA segment, single round, ends assumed
# Relative to: no-protein control
# Direction: higher = stronger binding
# Residues (chain): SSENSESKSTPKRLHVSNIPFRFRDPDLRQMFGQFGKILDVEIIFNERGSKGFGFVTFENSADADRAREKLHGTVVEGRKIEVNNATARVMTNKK
Strand,RBNS enrichment (R)
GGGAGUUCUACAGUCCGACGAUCAAUAUUUCUUCGUAUAGUUUAUUCUUUCUUUUAUAUAUUAUCUAAAUAUAUGUAUAUGUUGUGUAAUACACAUAAUCUGGAAAUGAAUAAAAUGCUAUAUUCUUGGUUUGUGGAAUUCUCGGGUGCCAA,0.557
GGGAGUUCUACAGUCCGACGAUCCUGAGUGUCCUCUCUUAACAUCCAAGCCUUUUAAUGAAAUCGUACUGAAAUCUGUAUCAGCUAAGAGUCCUCCAAUCCUGGUCCCAUUAACUCCAAGUGCCUUUUUGACAUGGAAUUCUCGGGUGCCAA,0.519
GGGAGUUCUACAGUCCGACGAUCCCUACUGUUAAAUAGCAUUUGUCUAAUUGCUAAUAAGCCUGUCGUUACCAAAUUUUAUAUAAGAAUGGAAUAGUCAGUCUGGCCUUAAAGAGACACACAAAGAUGGGCUGUGGAAUUCUCGGGUGCCAA,0.439
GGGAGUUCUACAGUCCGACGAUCGCGAGAAUGUCCUGCUGGUUCAUCUUGCACAGUGCCAGCUCAGCCUGAGCUUUGGUUUUUAGAAAUAAAGUGCAUGAAUUGCUGCUAUGCUGUAUCCUAGUAUCCCAGUGUGGAAUUCUCGGGUGCCAA,0.802
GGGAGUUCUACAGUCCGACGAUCCCUUUCAUUUAGCUACUUCAAAUAAUGUUAUCCACCUCCUGUCUCACAGCAGUGGGUACAGCCUGUGUGGGCGCAGGUGGUCCCUUUUCUGUGCCCUGACAAGUAGACUGUGGAAUUCUCGGGUGCCAA,0.704
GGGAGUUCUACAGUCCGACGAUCCUGAAGGUAGGUGAGUUCAUCCUCUUCAUGGUAAUGCUGUUUUACCAAGACUUUAUAGCAGAUGGACCCAGAAAGAAUUUUCUGCUAUUGUGUUCACUACAACAGGAUAGUGGAAUUCUCGGGUGCCAA,0.34
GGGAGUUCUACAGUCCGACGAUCAUUAUUCCUUAAGAAGUCUGUGUUAUAUUACCACGGAACACCCAAUAAAGCAAAAUGUGGUUGUUUCGAGGUGUGUCUGUAUUGAGACUCCCACAGUGUGUCGGCCUCUCUGGAAUUCUCGGGUGCCAA,0.368
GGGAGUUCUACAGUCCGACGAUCUGGGUUGCUGUCAUUUCUGUUUUUCUCUUGCAGUGACAGAUCAGAUCAAGGCGGUAAAUCAAGUGGAAAAAGCGUCGGGUUCAAGGGGAGAACUCUGAUUGUGGGUAAUCUGGAAUUCUCGGGUGCCAA,0.873
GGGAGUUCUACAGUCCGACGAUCCCUAUAGCCUCAGCUUCAGAAGCCAGUAGCCUCCAGCCACAGAGUAUCGUGUUGUGGGCUGUUUGAGAAGACCUGUCCUCCUGAGCUGCUCCUUCCCAUGGUGCUCACAGUGGAAUUCUCGGGUGCCAA,0.381
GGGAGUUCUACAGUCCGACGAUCAUACCUCCGUCUGACUCCUCAUUCUUCUGCAUUCUUGUACACUCCAUCAGUCAUCUAACAACAAAGAUACAUUAUUCACUCAUUGUCACCUCUGAGGCUUCUAUCAUAACUGGAAUUCUCGGGUGCCAA,1.78
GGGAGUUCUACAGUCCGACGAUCGAACCUAUUGAAAGGAAUUUGUUGUCACCUUCUUAACUAGAAUAGUUGUUGAAGGUACCGCUUAAGCCAUUUUUUUCUUAACAUCGGUGGCUCAGUUAAGGAAUGAGAAGUGGAAUUCUCGGGUGCCAA,0.296
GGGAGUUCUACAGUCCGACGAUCCGUUUUUUUAAAUUUUUUAUUCUGAUUGCUGUAUUAUAUUGGGGAUGUUCUAAACAACCAAACUAAAGCUGUGUACAGAUUGGGUUUGGAGCGGUGGGGACGUCAGCAGGUGGAAUUCUCGGGUGCCAA,0.582

# Study 2
# Target: RING finger protein unkempt homolog, zinc fingers 1-6, GST-SBP tag (UNK, Homo sapiens, UniProt Q9C0B0, residues 30-357)
# Method: RNA Bind-n-Seq
# Form: RNA
# Sample: in vitro
# Tested at: not given
# Notes: RNA with constant flanks, human-mouse chimeric sites, ends assumed
# Relative to: input RNA pool
# Direction: higher = stronger binding
# Target sequence (chain): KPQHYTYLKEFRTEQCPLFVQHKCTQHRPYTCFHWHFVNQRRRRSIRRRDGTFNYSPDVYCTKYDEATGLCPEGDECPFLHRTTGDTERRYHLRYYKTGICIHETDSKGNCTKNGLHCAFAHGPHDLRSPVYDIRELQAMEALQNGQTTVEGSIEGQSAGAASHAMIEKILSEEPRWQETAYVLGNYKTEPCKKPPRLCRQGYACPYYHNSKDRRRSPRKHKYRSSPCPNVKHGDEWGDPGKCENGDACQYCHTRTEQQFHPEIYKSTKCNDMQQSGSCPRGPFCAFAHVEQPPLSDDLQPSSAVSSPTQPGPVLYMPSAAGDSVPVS
Strand,bound/input enrichment [ratio]
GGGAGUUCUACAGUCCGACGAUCGAUAAGAAAAGCUUGUUGGAGACCCGCUUGCAUGUCACUGGCAGAGACCUGAGGUGUCAAAUAGCUGAAACUUUCGGAUUUCAAGAAAAUUAUAUCAAGAUCGUAAUAAAUAAGAAACAGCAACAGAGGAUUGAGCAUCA,0.385
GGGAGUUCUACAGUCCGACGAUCUUUCUACUGCAGCAGACGAUGCUAAGAAUUAAGGAUCCUAAGAAGUCCCUGGAUUUUUAUACGAGGGUUCUUGGACUGACGCUAAUCCAGAAGCUUGACUUCCCUGCUAUGAAGUUCUCGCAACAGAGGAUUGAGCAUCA,0.141
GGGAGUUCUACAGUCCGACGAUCCGGAGCCCUCCUCUCCCACAGGCCCAAGAUAUAACCCACCAGUGCCUUUUGUCUUCCUGUCAGCUCUAAUCAAUCAUCCUGUCCUCUCACGCCCACACCAAGUGCCCAAAGUGGGGAGGGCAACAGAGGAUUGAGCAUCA,0.661
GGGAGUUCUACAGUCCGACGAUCAGAUUCCCCCUCCUGAGACCUCCUCCGAAGUUGGAGUCUCUUACAGAUGGUUCAUCUCCUGUUAGCGUUUUAGUUUGGACCACCCAGCCUUGGACAAUUCCCGCCAACCAGGCAAUUUGCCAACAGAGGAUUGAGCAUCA,3.38
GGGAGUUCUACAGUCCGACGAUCAAAUUUCCCCUCCUGAGACCUCCUCCGAAGUUGGAGUCUCUUACAGAUGCCUCAUCCCCUGUUAGCGUUUUAGUUUGGACCACCCAGCCUUGGACAAUUCCAGCCAACCAGGCAAUUUGCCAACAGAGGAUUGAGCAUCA,1.17
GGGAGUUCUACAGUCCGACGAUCUAAGUCCUGUGCCAGCACUUCGCUCAUAAAGUUUUAAAUUCUGGACCAAUAGUGUUUGUUUCCUGAUUAUUGUAUCCAAUACUUUAUGUACUAUGUGACUCACUCUUACUGAUAAUAAAACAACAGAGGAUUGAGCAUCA,0.524
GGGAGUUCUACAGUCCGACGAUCAAACAUCUGUCUUUAAGCAUUCCAAGCGAGAAUGCUGGGGUGAUCAUUGUUGCCCAUGUGCCUUCUGACUGAGCUUUAAUGCUGUUCCAUGUUACAUCUUUCCUUCAUUGCAUAUUUGUUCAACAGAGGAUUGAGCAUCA,0.181
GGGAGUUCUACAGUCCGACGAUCAGAUUCCCCCUCCUGAGACCUCCUCCGAAAUUGGCAUCUCUUACAGAUGCCUCAUCCCCUGUUAGUAUUUUAGUUUGGACCACCCAGCCUUGGACAAUUCCCGCCAACCAGGCAAUUUGCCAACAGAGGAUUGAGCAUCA,4.27
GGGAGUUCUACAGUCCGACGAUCGCAGGAUCUUCUAAAUACCAGUGGGACAUUAUGAAAUCCCUUGGGCUCUCUGAUGACGACAUAGUGAAGUUUUCUGAAGCAGAGCACUGGCUUGAUUAUUUCCCACCACUGGCUAUUCAGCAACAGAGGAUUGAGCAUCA,0.096
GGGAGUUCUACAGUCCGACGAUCACCAUUUUCGCGGUUCAGGCUUUGUGUGUAGUUCACUCUAUGUAUUAAAUUAUUAUUCUGCUUAGCUUAUAAUAAGGAUUACAAUUGUUAAAGAGGUUACUGAAUGUUACUCUGAAACUUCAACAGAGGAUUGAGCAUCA,0.548
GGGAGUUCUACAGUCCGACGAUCUGGCGCCUCCCAUUUUUACUCGUGUUUUUAAGUGUAUUUUUAUAAGAUACAUGUAUUUACAAUUGAGCUUUUGUUACAUAAUGCUGAAAUGCUACUGGAGAUUAUGAAAAAUGUUUCAAUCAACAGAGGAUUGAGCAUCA,0.17

# Study 3
# Target: Interferon regulatory factor 5, full length, phosphomimetic (IRF5, Homo sapiens, UniProt Q13568-2, residues 1-514, S451D/S453D/S456D/S462D)
# Method: protein-binding microarray
# Form: double-stranded DNA, one strand shown
# Sample: in vitro
# Tested at: 940 nM top
# Notes: 60-bp whole probe
# Together with: salmon DNA 0.4 mg/ml
# Relative to: random background probes
# Direction: higher = stronger binding
# All sequences stand within: GCCTAGCAC … GTCTTGATTCGCTTGACGCTGCTG
Strand,fitted relative affinity [z-score]
GCCGGTATCCTTTTCCTGACGTGCTAG,0.916
GACGATTTCGGCACTGGAGACGTGCTA,-0.046
TATGTTCCCTATTTAAGGCAGTGCTAG,0.574
GACGATTCCAGTTTCGACACGTGCTAG,5.05
ACTTTTTTTTTTCCCTGAAAGTGCTAG,1.34
TTCCAACTCTGTTTTCGCTTGTGCTAG,1.27
GACGGTATCGGATTCGGGACGTGCTAG,3.54
GACGGTATAGGGTTTCGGGACGTGCTA,1.67
GACGGTTTCGGAATCGGGACGTGCTAG,7.66
TCACATTCCCCATTGTGACTGTGCTAG,0.938
TCAACTTTGCTCTGTGCAACTGTGCTA,-0.0523
CCCCTCTTCTGGATCTCAGAGTGCTAG,0.0418
TCAAATCTCAGCCTCCGACTGTGCTAG,0.415
GACGAACTGGGGTACCGAGACGTGCTA,0.0828
TGCAACATCCCAATGGCCCTGTGCTAG,0.227
GAAAACAAAGAAAATACAAAGTGCTAG,0.104
TGGAGCCTAAGGTTTAGGCTCGTGCTA,-0.998

# Study 4
# Target: Ras GTPase-activating protein-binding protein 1, C-terminal RGG region (G3BP1, Homo sapiens, UniProt Q13283)
# Chain of UniProt Q13283 (whole entry, looked up): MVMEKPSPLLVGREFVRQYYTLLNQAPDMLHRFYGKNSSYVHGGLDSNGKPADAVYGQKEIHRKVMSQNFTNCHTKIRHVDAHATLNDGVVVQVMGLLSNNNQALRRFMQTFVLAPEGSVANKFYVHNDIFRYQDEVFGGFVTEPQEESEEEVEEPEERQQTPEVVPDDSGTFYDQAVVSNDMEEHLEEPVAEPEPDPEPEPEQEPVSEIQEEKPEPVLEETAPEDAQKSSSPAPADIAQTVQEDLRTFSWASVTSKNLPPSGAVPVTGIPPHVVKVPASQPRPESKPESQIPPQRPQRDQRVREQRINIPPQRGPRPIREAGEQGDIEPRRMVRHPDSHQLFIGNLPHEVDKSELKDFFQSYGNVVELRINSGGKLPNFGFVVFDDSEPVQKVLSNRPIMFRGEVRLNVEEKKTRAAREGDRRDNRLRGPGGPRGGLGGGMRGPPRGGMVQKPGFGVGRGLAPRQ
# Method: RNA Bind-n-Seq
# Form: RNA
# Sample: in vitro
# Tested at: 1 µM
# Notes: whole 134-nt RNA, ends assumed
# Together with: 150 mM KCl
# Relative to: input library
# Direction: higher = stronger binding
Strand,log2 enrichment
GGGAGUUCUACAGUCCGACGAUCUAUCUUAUCUACACAUGGGGGACUGAAGAGUUCGAGAGAUCCAAGAGGAAGAAUCCAGCUGCCUAUGAAAAUGACAAAUGAGCAACGCAUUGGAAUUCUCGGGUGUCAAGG,-1.51
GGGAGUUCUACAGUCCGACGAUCGUCCUGUGCUACACAUCGUAUGUACCGAAUCGGAAAAAAGGGAAAAAAGGGAAAAAAGGAAAGUAUUAUGUUACGCCGUUCGGAUCUGCAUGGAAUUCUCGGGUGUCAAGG,-1.55
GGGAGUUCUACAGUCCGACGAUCAGUCCUGUGCUACACAUCGUAUGUACCGAAUCGGGGUGGGGUUUUUUUGGGGAGGGGAAAGUAUUAUGUUACGCCGUUCGGAUCUGCACUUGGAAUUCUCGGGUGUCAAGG,1.78
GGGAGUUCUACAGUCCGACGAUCCCUGUGCUACACAUCGUAUGUACCGAAUCAAACCCCCCCAAAUUUUUUUAAACCCCCAAAAAAGUAUUAUGUUACGCCGUUCGGAUCUGCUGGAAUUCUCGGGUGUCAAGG,-0.982
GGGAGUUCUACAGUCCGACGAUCUCAAGUCCUGUGCUACACAUCGUAUGUACCGAAUCGGGAAGGGGAAGGGGAAGGAAAGUAUUAUGUUACGCCGUUCGGAUCUGCACUUCCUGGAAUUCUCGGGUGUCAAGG,-0.678
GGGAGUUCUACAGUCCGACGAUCAAGUCCUGUGCUACACAUCGUAUGUACCGAAUCGGUUUUUGGAAAAAGGUUUUUGGAAAGUAUUAUGUUACGCCGUUCGGAUCUGCACUUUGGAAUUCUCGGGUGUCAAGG,-2.22
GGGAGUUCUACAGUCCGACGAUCACCAUGCAGGUGGGCAUCUUUGGGAAGUGGGGCAAGGGUGGGAUAGGGAGGGGGGUAACACUUUGGGAACAGGUGGUCCCAGGUCGUUUCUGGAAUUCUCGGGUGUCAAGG,-0.92
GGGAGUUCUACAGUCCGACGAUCGCAGGAAGUAAAAACAAAUGGAAAUGCUUCGGAUAGUAGCAGGGGUGGGGGUUGCUAAGGAAAGGGUGGGAUGGGAGUGGGUAAAGAGUUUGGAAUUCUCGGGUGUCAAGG,0.837
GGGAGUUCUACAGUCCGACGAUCCACAGACAACACGCACCCACACAGACACAGAGGGAAGGGAAAGGGAUGGGGACAGGGUGCACAGCAGGGCGGGGUAGGACCCCAGCCCCUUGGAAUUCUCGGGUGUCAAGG,-0.221
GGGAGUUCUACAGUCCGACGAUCGUCCUGUGCUACACAUCGUAUGUACCGAAUCGGGGUUUUUGGGGUUUGGGGAAAGGGGAAAGUAUUAUGUUACGCCGUUCGGAUCUGCACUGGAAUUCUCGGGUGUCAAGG,3.63

# Repeated from above (study 3):
Strand,fitted relative affinity [z-score]
TCACATTCCCCATTGTGACTGTGCTAG,0.938
TCAACTTTGCTCTGTGCAACTGTGCTA,-0.0523
CCCCTCTTCTGGATCTCAGAGTGCTAG,0.0418
TCAAATCTCAGCCTCCGACTGTGCTAG,0.415
GACGAACTGGGGTACCGAGACGTGCTA,0.0828
